# Published values collected from several papers.
# Numbered parts are unrelated; each lists some results of a single study.
# Chain of UniProt P08581 (whole entry, looked up): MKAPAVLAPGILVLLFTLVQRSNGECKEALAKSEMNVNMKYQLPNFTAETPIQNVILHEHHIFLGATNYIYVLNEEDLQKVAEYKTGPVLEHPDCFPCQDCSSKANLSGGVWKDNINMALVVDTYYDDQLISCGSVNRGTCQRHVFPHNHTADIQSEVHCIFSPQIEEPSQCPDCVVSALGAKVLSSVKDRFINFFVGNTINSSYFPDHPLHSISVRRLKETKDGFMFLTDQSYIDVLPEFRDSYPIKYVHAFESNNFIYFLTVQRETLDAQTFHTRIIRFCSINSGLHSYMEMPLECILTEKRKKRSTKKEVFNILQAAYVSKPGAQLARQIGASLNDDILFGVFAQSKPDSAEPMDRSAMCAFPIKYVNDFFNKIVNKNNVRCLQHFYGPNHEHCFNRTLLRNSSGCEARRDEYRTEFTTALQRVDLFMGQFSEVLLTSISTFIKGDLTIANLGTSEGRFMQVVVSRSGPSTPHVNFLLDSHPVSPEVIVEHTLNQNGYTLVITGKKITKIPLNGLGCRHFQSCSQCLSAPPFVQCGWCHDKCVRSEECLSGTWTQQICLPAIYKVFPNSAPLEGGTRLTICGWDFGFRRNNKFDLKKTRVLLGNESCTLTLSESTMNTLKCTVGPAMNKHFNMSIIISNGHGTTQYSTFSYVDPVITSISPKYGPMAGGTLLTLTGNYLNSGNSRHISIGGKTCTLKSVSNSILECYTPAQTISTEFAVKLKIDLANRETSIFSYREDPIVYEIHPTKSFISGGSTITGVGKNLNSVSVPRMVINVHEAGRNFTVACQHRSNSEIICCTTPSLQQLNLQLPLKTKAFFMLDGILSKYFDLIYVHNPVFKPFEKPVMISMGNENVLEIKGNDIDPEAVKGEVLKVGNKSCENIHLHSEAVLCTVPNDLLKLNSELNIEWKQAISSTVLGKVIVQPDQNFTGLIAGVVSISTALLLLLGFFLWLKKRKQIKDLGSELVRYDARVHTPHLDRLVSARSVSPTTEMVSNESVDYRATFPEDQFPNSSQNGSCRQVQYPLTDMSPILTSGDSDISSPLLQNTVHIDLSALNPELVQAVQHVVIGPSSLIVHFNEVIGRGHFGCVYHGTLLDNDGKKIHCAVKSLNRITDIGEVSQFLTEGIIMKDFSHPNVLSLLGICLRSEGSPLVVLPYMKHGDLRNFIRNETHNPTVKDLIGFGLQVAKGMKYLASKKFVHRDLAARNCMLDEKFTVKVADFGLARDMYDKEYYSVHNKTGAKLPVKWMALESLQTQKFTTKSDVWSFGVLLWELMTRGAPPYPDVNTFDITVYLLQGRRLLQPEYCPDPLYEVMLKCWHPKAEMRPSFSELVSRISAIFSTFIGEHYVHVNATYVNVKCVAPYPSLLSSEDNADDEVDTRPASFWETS
# Chain of UniProt O14733 (whole entry, looked up): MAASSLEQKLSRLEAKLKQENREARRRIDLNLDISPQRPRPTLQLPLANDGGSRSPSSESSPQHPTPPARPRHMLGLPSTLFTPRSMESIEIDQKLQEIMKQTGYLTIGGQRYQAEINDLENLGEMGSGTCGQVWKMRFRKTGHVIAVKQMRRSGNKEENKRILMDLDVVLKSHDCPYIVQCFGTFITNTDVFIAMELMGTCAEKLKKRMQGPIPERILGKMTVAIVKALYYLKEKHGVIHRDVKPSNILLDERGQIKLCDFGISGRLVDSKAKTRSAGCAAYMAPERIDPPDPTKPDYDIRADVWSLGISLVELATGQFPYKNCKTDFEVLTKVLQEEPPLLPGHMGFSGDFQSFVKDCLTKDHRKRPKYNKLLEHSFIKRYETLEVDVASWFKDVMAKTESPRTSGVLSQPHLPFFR
# Chain of UniProt P31751 (whole entry, looked up): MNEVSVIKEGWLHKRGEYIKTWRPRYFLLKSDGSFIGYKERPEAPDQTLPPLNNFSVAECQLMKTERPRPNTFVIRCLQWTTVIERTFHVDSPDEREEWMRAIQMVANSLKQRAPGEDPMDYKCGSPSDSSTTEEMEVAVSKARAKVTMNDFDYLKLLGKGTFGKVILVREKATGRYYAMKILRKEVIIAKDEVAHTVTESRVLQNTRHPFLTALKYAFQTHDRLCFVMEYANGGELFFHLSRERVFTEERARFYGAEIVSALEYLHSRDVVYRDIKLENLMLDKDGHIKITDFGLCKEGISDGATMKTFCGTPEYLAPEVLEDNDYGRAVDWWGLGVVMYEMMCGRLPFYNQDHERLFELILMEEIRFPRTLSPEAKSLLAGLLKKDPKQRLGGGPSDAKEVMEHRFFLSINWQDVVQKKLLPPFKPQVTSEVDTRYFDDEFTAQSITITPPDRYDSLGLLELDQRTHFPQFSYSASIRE
# Chain of UniProt P28482 (whole entry, looked up): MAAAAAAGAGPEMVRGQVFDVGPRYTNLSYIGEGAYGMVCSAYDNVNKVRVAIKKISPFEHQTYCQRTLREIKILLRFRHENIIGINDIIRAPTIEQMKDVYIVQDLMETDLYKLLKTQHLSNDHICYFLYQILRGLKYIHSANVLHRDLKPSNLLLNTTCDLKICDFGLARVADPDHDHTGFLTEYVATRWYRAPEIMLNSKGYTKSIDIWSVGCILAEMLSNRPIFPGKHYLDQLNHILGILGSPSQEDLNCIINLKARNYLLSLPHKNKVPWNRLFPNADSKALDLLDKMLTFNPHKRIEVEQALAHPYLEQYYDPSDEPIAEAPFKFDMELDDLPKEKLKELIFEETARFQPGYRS
# Chain of UniProt Q96L34 (whole entry, looked up): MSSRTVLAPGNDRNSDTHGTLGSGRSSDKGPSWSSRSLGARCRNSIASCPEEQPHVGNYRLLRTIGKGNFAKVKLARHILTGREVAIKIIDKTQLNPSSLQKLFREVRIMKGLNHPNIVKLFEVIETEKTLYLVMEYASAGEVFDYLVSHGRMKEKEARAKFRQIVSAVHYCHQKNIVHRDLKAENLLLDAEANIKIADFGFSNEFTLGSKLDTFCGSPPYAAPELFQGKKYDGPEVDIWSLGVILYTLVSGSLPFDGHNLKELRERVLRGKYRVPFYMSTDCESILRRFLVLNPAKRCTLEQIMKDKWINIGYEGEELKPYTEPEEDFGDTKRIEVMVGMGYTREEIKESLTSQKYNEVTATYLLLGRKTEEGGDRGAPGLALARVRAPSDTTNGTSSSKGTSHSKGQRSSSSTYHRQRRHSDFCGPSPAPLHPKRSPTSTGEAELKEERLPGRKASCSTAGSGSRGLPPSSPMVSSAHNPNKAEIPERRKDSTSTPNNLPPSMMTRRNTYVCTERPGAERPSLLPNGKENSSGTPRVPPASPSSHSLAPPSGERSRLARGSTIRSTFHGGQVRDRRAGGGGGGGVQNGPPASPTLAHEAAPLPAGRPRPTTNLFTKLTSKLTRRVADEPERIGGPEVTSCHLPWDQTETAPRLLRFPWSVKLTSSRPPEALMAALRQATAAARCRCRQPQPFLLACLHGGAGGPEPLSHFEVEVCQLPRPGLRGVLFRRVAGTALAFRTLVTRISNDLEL
# Chain of UniProt Q6P2M8 (whole entry, looked up): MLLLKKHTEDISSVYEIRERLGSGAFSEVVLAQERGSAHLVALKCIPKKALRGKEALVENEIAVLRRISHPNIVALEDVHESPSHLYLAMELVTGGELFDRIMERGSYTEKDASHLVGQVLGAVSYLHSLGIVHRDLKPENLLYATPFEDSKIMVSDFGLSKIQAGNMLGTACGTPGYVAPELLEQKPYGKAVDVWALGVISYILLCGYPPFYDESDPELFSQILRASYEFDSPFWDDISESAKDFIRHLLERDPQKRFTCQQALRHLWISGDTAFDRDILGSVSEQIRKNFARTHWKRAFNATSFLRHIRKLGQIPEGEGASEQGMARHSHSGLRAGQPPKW
# Chain of UniProt Q8N568 (whole entry, looked up): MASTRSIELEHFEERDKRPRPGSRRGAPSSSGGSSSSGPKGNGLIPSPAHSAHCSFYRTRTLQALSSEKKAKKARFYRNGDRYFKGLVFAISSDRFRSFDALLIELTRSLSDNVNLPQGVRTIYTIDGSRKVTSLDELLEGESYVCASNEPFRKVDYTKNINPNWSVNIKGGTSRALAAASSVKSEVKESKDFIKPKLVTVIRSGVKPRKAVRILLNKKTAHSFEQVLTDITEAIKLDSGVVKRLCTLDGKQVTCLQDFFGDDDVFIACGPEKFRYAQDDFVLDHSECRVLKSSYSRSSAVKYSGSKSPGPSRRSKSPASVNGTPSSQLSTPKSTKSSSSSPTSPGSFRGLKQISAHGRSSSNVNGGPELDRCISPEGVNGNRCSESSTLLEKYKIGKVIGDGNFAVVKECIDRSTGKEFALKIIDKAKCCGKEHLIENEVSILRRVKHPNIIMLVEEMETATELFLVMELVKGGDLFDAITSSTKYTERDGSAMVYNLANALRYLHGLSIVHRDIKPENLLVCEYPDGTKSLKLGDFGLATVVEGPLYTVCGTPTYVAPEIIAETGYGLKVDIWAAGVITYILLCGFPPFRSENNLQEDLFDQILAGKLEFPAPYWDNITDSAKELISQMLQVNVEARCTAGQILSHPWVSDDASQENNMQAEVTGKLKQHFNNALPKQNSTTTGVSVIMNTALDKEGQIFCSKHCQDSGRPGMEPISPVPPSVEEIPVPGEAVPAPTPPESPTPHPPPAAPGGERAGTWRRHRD
# Chain of UniProt Q9HAZ1 (whole entry, looked up): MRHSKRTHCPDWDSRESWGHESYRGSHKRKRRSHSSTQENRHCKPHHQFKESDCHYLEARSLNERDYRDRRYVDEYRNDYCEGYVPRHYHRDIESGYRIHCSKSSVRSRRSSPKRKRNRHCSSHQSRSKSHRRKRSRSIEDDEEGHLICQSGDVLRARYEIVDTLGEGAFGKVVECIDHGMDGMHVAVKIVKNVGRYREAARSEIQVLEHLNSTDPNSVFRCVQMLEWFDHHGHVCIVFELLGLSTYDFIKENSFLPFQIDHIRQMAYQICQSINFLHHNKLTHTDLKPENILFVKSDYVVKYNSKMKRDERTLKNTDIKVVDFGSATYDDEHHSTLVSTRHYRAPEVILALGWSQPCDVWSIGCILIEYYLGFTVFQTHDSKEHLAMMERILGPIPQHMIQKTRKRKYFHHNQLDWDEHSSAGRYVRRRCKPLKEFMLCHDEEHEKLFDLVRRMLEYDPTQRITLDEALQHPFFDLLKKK

# Sample 1
# Host: mouse
# Medium: microsomes or S9
# Concentration: 2 µM
# Time: 0.5 h
SMILES,remaining compound [%]
CC(C)CCn1cnc2c(cnn2-c2ccc(Cl)cc2)c1=O,< 1
CC(C)(C)NC(=O)Cn1nc2c(-c3nc(-c4cccc(F)c4)no3)cccn2c1=O,80.8
CCOC(=O)C1=C(n2[nH]c3nc(C)cc(COC)c3c2=N)CCC1,44.5
O=C(O)c1ccc(-c2nc3cc(Cl)c(Cl)cc3[nH]2)cc1,42.2
O=C(CN1C(=O)CNC1=O)N1C[C@H]2CC=CC[C@H]2C1,88
COc1ccc(OCc2nc3c4c(-c5ccccc5)c(-c5ccccc5)n(CCO)c4ncn3n2)cc1,1.29

# Sample 2
# Structure (SMILES): CCc1ccccc1C(=O)Nc1n[nH]c2c(C)c(F)c(C3C(C#N)=C(C)N(C)C(C)=C3C#N)cc12
# Read-out: cell-free assay
# Technique: competition with immobilised ligand
# Concentration: 1 µM
target,remaining binding [%]
"Hepatocyte growth factor receptor (MET, Homo sapiens, UniProt P08581)",7.3
"Serine/threonine-protein kinase LATS2 (LATS2, Homo sapiens, UniProt Q9NRM7)",67
"Epidermal growth factor receptor (EGFR, Homo sapiens, UniProt P00533, G719S)",61
"Serine/threonine-protein kinase DCLK3 (DCLK3, Homo sapiens, UniProt Q9C098)",82
"Dual specificity mitogen-activated protein kinase kinase 7 (MAP2K7, Homo sapiens, UniProt O14733)",100

# Sample 3
# Organism: Sarcocystis neurona
# Read-out: parasite growth
# Concentration: 10 µM
# Time: 96 h
# Notes: first screen
# Relative to: untreated
SMILES,log2 fold change
CC(C)Oc1ccc2c(=O)c(-c3ccccc3)coc2c1,2.39
COc1ccc([C@@H]2Sc3ccccc3N(CCN(C)C)C(=O)[C@@H]2OC(C)=O)cc1,0.0651
C/C=C1\[C@H]2C=C(C)C[C@]1(N)c1ccc(=O)[nH]c1C2,0.17
NNC(=O)c1ccncc1,0.34
CC(C(O)c1ccc(O)cc1)N1CCC(Cc2ccccc2)CC1 (centres unmarked),-0.12
Cc1ccc(S(=O)(=O)NC(=O)NN2CCCCCC2)cc1,0.3
CCOc1ccc2ccccc2c1C(=O)N[C@@H]1C(=O)N2[C@@H]1SC(C)(C)[C@@H]2C(=O)O,0.05
O=C(O)C[C@H](O)C[C@H](O)/C=C/c1c(C2CC2)nc2ccccc2c1-c1ccc(F)cc1,-0.33

# Sample 4
# SMILES: Cc1ccc(NC2=CC(=O)c3sc(C)nc3C2=O)cc1
# Read-out: enzyme activity
# Action: inhibitor
# Concentration: 0.5 µM
# Relative to: control
target,remaining activity [%]
"Hepatocyte growth factor receptor (MET, Homo sapiens, UniProt P08581)",99.7
"Calcium/calmodulin-dependent protein kinase type 1B (PNCK, Homo sapiens, UniProt Q6P2M8)",95.3
"MAP/microtubule affinity-regulating kinase 4 (MARK4, Homo sapiens, UniProt Q96L34)",102
"Rho-associated protein kinase 1 (ROCK1, Homo sapiens, UniProt Q13464)",100
"Serine/threonine-protein kinase DCLK2 (DCLK2, Homo sapiens, UniProt Q8N568)",95.3
"Mitogen-activated protein kinase 1 (MAPK1, Homo sapiens, UniProt P28482)",91.4
"Dual specificity protein kinase CLK3 (CLK3, Homo sapiens, UniProt P49761)",98.6
"RAC-beta serine/threonine-protein kinase (AKT2, Homo sapiens, UniProt P31751)",91.3
"Misshapen-like kinase 1 (MINK1, Homo sapiens, UniProt Q8N4C8)",101
"Serine/threonine-protein kinase MRCK beta (CDC42BPB, Homo sapiens, UniProt Q9Y5S2)",109
"Mitogen-activated protein kinase 14 (MAPK14, Homo sapiens, UniProt Q16539)",92.4
"Dual specificity protein kinase CLK4 (CLK4, Homo sapiens, UniProt Q9HAZ1)",99.1
"Dual specificity mitogen-activated protein kinase kinase 1 (MAP2K1, Homo sapiens, UniProt Q02750)",96.1
